{"data": "Assay results gathered from unrelated publications", "note": "Several values in a cell are separate wells, animals, samples, runs or records."}
{"SMILES": "C=C(NC(=O)c1csc(-c2nc3c(cc2O)-c2nc(cs2)C(=O)NC(C(C)O)C(=O)NC(=C(C)OC)c2nc(cs2)C(=O)NC2c4nc(cs4)C(=O)NC(COC(=O)c4c5c6c(cccc6n4O)COC(=O)C(OC4CC(C)(O)C(N(C)C)C(C)O4)C2OC5)c2nc-3cs2)n1)C(N)=O (stereo not drawn)", "organism": "Streptococcus pyogenes", "system": "10 isolates", "conditions": "serum 25%", "endpoint": "MIC50", "value": "0.0078 µg/mL"}
{"SMILES": "COc1ccccc1NC(=O)OC1C(C)C(OC)C=COC2(C)Oc3c(C)c(O)c4c(c3C2=O)C2=NC3(CCN(CC(C)C)CC3)NC2=C(NC(=O)C(C)=CC=CC(C)C(O)C(C)C(O)C1C)C4=O (stereo not drawn)", "organism": "Mycobacteroides abscessus", "assay": "intracellular growth, visual read", "system": "THP-1 derived macrophages, ATCC 19977", "endpoint": "IC90", "value": "95 nM"}
{"SMILES": "FC(F)(F)c1cccc(CNc2nc(NC3CCN(Cc4ccccc4)CC3)c3nc[nH]c3n2)c1", "organism": "Cryptococcus neoformans", "assay": "RNA-seq", "conditions": "48 µg/mL, 3 h", "scale": "reference: genome", "endpoint": "differentially expressed genes", "value": "~18%"}
{"SMILES": "Cc1cccc2c1N(C(=O)n1ccnn1)CC2", "organism": "Arabidopsis thaliana", "system": "wild type, seeds", "conditions": "3 µM, high ambient temperature", "endpoint": "germination rate", "value": "78% and 7.5% and 6.5% and 74.1% and 2.3% and 2.9%"}
{"SMILES": "c1ccc(CN2CCOCCOCCN(CCCCCCCCCCCCN3CCOCCOCCN(CCCCCCCCCCCCN4CCOCCOCCN(Cc5ccccc5)CCOCCOCC4)CCOCCOCC3)CCOCCOCC2)cc1", "organism": "Klebsiella pneumoniae", "assay": "tetracycline MIC, checkerboard", "system": "ATCC BAA-2146", "conditions": "quarter MIC, added: tetracycline", "scale": "reference: MIC alone over combination", "endpoint": "fold enhancement", "value": "3 fold"}
{"SMILES": "O=Cc1c[nH]c2ccccc12", "organism": "Clostridioides difficile", "assay": "microbial growth, absorbance", "endpoint": "IC50", "value": "> 50000 nM"}
{"SMILES": "CC(C)[C@H](NC(=O)OCc1ccccc1)C(=O)N(C)[C@@H](Cc1ccc(OC(C)(C)C)cc1)C(=O)Nc1ccccc1C(=O)N[C@@H](C)C(=O)O", "organism": "Candida albicans", "assay": "potentiator, broth microdilution", "system": "ATCC 90029", "conditions": "2.0 µg/mL, added: amphotericin B", "scale": "reference: amphotericin B alone", "endpoint": "fold potentiation", "value": 4}
{"SMILES": "CCC1(CC)CC(=O)N(C2c3cc(C(=O)NC4c5ccccc5CC4O)ccc3OC2(C)COC)C(=N)N1 (stereo not drawn)", "organism": "Plasmodium falciparum", "system": "3D7", "conditions": "10 × EC50, 120 h, 99% clearance", "endpoint": "parasite clearance time", "value": "54.5 h"}
{"SMILES": "C[N+](C)(C)CCO.O=C([O-])C(Cl)Cl", "organism": "Xanthium sibiricum", "conditions": "15 mg/mL, 21 days, pre-emergence, greenhouse", "endpoint": "herbicidal inhibition", "value": "0%"}
{"SMILES": "CNCc1ccc2c(c1)N(C(=O)OCc1c(F)c(F)c(F)c(F)c1F)[C@H](CNC(=N)N)[C@H]2NC(=O)C(=O)Nc1ccc(Cl)c(F)c1", "organism": "HIV-1", "assay": "pseudovirus infection, Env pseudovirus neutralisation", "system": "TZM-bl, clade C", "endpoint": "IC50", "value": "587 nM"}
{"SMILES": "CC1(C)[C@H](NC(=O)/C(=N\\OCCN)c2nsc(N)n2)C(=O)N1OS(=O)(=O)O", "organism": "Providencia rettgeri", "assay": "agar dilution", "system": "ATCC 31052, susceptible", "endpoint": "MIC", "value": "0.06 µg/mL"}
{"SMILES": "C=C[C@]1(C)C[C@@H](OC(=O)CSc2ccc(NC(=O)c3ccco3)cc2)[C@]2(C)[C@H](C)CC[C@]3(CCC(=O)[C@H]32)[C@@H](C)[C@@H]1O", "organism": "Mycoplasma gallisepticum", "system": "infected chickens, lung", "conditions": "intramuscular, 50 mg/kg daily x3, 72 h", "scale": "reference: 0 h", "endpoint": "lung mycoplasma load reduction", "value": "2.08 log10 CFU/mL and 1.84 log10 CFU/mL and 1.59 log10 CFU/mL and 1.08 log10 CFU/mL and 1.03 log10 CFU/mL and 1.39 log10 CFU/mL and 1.73 log10 CFU/mL and 1.45 log10 CFU/mL"}
{"note": "Excerpt of the above:"}
{"SMILES": "COc1ccccc1NC(=O)OC1C(C)C(OC)C=COC2(C)Oc3c(C)c(O)c4c(c3C2=O)C2=NC3(CCN(CC(C)C)CC3)NC2=C(NC(=O)C(C)=CC=CC(C)C(O)C(C)C(O)C1C)C4=O (stereo not drawn)", "organism": "Mycobacteroides abscessus", "assay": "intracellular growth, visual read", "system": "THP-1 derived macrophages, ATCC 19977", "endpoint": "IC90", "value": "95 nM"}
{"SMILES": "C[N+](C)(C)CCO.O=C([O-])C(Cl)Cl", "organism": "Xanthium sibiricum", "conditions": "15 mg/mL, 21 days, pre-emergence, greenhouse", "endpoint": "herbicidal inhibition", "value": "0%"}
